Results of several laboratories.
Numbered parts are unrelated; each lists some results of a single study. Positions count from the first letter of the parent shown.

Set 1
Target: Max dimerization protein 1, bHLH-zipper, MAX partner unstated (MXD1, Homo sapiens, UniProt Q05195, residues 56-136)
Method: protein-binding microarray
Molecule type: double-stranded DNA, one strand shown
Sample: in vitro
Concentration: not given
Setting: k-mer, scored over probes, only values ≥0.25
Reading: higher = stronger binding
Residues (chain): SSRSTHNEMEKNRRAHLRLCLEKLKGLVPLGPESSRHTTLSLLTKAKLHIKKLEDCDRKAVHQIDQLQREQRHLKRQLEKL
| Oligonucleotide | E-score |
| --- | --- |
| ACATGTAG | 0.309 |
| ACCTCATG | 0.377 |
| CAACGTGA | 0.378 |
| GGGGGAAC | 0.253 |
| CACGAGAC | 0.346 |
| CTCATGGA | 0.253 |
| GAACACGA | 0.28 |
| ATGCATGA | 0.303 |

Set 2
Target: CCNA2, cyclin fold, Cln2 fusion (human)
Method: yeast growth competition, sequencing
Sample: yeast
Setting: strong parent motif
Reference: not given
Reading: higher = stronger binding
Starting sequence: GMNC docking peptide (human); KNAKRNLSSEFAN; partner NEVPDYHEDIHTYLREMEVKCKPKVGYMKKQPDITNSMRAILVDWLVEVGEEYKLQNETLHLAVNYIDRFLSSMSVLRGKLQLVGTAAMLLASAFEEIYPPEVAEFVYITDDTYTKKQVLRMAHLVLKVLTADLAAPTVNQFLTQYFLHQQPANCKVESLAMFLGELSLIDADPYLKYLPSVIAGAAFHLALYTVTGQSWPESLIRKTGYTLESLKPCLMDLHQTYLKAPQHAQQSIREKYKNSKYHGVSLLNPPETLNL
| Substitution | normalised enrichment score |
| --- | --- |
| N6C | 4.83 |
| S8F | 5.5 |
| S8C | 4.78 |
| N6Q | 1.7 |
| S8G | 3.93 |
| N6E | 2.16 |
| S9T | 5.09 |
| A3L | 2.44 |

Other studies, line by line
| Substance | target or system | test | system | setting | quantity | result |
| --- | --- | --- | --- | --- | --- | --- |
| ILLARLFLY | HLA class I histocompatibility antigen, A alpha chain, allele A*80:01 (Homo sapiens, UniProt P04439) | peptide-MHC binding | peptide | concentration not given | binding | active |
| MTA2 (Homo sapiens, UniProt O94776) | HDAC2 (Homo sapiens, UniProt Q92769) | cross-linking MS |  | hits only | interaction screen | cross-linked |
